Measurements of several laboratories.
Protocols differ between the studies behind these lines. Numbers after ± are the reported error.

Compound | tested on | test | system | conditions | endpoint | value
Nc1nc2c(ncn2COCCO)c(=O)[nH]1 | Zaire ebolavirus | viral replication | HeLa | 24 h | EC50 | > 25 µM
O=C(N1CCC2(CC1)C[C@H](CN1CCCCS1(=O)=O)CCO2)C1(c2ccccc2)CCCC1 | Zaire ebolavirus | viral replication | Vero | – | EC50 | > 30 µM
CN(C)C1CCN(C(=O)c2cc3ccccc3n2Cc2ccncc2)CC1 | Zaire ebolavirus | pseudovirus entry | A549 | – | EC50 | 16.2 ± 2 µM
COc1cc2c(OCCCC#N)c3c(c(-c4ccc5c(c4)OCO5)c2cc1OC)C(=O)OC3 | Zaire ebolavirus | viral replication | HeLa | – | EC90 | 0.051 µM
O=C(Nc1csc(N2CCOCC2)n1)c1ccc(CN2CCOCC2)cc1 | Zaire ebolavirus | viral entry | A549 | EBOV-GP pseudovirus | EC50 | > 100 µM
COc1cc2c(OC3CCOC3)c3c(c(-c4ccc5c(c4)OCO5)c2cc1OC)C(=O)OC3 (centres unmarked) | Zaire ebolavirus | viral replication | HeLa | – | EC90 | 0.1 µM
O=C1c2ccccc2-c2ccccc21 | Zaire ebolavirus | viral replication | HeLa | 24 h | EC50 | > 25 µM
CN(C)CCNC(=O)c1cn(Cc2ccc(F)cc2)c2ccccc12 | Zaire ebolavirus | pseudovirus entry | A549 | – | EC50 | 2.78 ± 0.3 µM
Nc1ncnc2c([C@@H]3N[C@H](CO)[C@@H](O)[C@H]3O)c[nH]c12 | Zaire ebolavirus | antibody staining | HeLa, Kikwit | 12.5 µM | antigen-positive cells | 25%
COc1c(C)c2c(c(O)c1C/C=C(\C)CCC(=O)O)C(=O)OC2 | Zaire ebolavirus | minigenome RNA synthesis | HEK293T | 10 µM | inhibition | ~90%
CN1CCN(C(c2ccccc2)c2ccc(Cl)cc2)CC1 (centres unmarked) | Zaire ebolavirus | – | HeLa, Kikwit | 48 h | IC50 | 5.7 µM
CC[C@H](C)[C@H](NC(=O)[C@H](CC(C)C)NC(=O)[C@H](Cc1c[nH]c2ccccc12)NC(=O)[C@H](CCC(N)=O)NC(=O)[C@@H](NC(=O)[C@H](Cc1ccccc1)NC(=O)[C@H](C)NC(=O)[C@H](CCCCNC(=O)COCCOCCNC(=O)COCCOCCNC(=O)CC[C@H](NC(=O)CCCCCCCCCCCCCCCCCCC(=O)O)C(=O)O)NC(=O)[C@H](CCC(N)=O)NC(=O)[C@H](C)NC(=O)[C@@H](NC(=O)[C@H](CCCCN)NC(=O)[C@H](CC(=O)O)NC(=O)[C@H](CC(C)C)NC(=O)C(C)(C)NC(=O)[C@@H](NC(=O)[C@H](CO)NC(=O)[C@H](Cc1ccc(O)cc1)NC(=O)[C@H](CC(=O)O)NC(=O)[C@H](CO)NC(=O)[C@@H](NC(=O)[C@H](Cc1ccccc1)NC(=O)[C@@H](NC(=O)CNC(=O)[C@H](CCC(=O)O)NC(=O)C(C)(C)NC(=O)[C@@H](N)Cc1ccc(O)cc1)[C@@H](C)O)[C@@H](C)O)[C@@H](C)CC)[C@@H](C)CC)C(C)C)C(=O)N[C@@H](C)C(=O)NCC(=O)NCC(=O)N1CCC[C@H]1C(=O)N[C@@H](CO)C(=O)N[C@@H](CO)C(=O)NCC(=O)N[C@@H](C)C(=O)N1CCC[C@H]1C(=O)N1CCC[C@H]1C(=O)N1CCC[C@H]1C(=O)N[C@@H](CO)C(N)=O | – | – | healthy human subjects, serum | 4.5 mg, day 29, multiple ascending dose | lipase | 25.5 ± 13.2 U/L
CNCCOC(c1ccccc1)c1ccccc1 | Zaire ebolavirus | viral entry | – | HIV pseudovirions with EBOV glycoprotein | IC50 | 12.2 ± 0.5 µM
CCOC(=O)C1=C[C@@H](OC(CC)CC)[C@H](NC(C)=O)[C@@H](N)C1 | Zaire ebolavirus | viral replication | HeLa | 24 h | EC50 | > 25 µM

Excerpt of the above:
Compound | tested on | test | system | conditions | endpoint | value
COc1cc2c(OC3CCOC3)c3c(c(-c4ccc5c(c4)OCO5)c2cc1OC)C(=O)OC3 (centres unmarked) | Zaire ebolavirus | viral replication | HeLa | – | EC90 | 0.1 µM
